# Measurements gathered from unrelated publications.
# Numbered parts are unrelated; each lists some results of a single study.
# Sequence of UniProt Q9C5W9 (whole entry, looked up): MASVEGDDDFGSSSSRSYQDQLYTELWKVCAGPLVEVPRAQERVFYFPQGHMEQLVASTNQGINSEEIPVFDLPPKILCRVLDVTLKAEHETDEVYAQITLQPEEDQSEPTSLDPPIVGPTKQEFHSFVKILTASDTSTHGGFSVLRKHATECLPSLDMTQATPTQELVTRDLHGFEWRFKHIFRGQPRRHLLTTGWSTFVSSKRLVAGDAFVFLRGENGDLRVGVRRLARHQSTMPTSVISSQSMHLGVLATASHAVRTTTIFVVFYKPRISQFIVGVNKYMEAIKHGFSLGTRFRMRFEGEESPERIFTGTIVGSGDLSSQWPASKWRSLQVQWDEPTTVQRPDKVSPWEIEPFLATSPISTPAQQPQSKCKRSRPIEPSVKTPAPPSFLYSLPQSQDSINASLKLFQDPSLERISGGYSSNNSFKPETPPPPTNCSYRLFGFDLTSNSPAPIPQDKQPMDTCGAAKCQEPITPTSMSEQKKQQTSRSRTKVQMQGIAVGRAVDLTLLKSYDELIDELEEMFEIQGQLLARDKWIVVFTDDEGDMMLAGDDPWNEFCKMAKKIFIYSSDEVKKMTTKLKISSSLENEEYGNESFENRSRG
# Sequence of UniProt Q8H174 (whole entry, looked up): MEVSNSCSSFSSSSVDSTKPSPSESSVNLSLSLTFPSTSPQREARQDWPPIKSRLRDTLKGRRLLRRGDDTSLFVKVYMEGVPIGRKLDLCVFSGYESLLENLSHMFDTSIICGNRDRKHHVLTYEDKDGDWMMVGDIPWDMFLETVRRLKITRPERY
# Sequence of UniProt Q38829 (whole entry, looked up): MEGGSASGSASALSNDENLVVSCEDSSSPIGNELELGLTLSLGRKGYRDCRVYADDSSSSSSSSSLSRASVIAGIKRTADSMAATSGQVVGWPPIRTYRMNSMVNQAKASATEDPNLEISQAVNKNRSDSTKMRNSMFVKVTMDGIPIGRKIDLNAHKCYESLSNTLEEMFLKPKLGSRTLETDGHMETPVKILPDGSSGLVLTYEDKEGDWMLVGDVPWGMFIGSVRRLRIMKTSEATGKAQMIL
# Sequence of UniProt O23661 (whole entry, looked up): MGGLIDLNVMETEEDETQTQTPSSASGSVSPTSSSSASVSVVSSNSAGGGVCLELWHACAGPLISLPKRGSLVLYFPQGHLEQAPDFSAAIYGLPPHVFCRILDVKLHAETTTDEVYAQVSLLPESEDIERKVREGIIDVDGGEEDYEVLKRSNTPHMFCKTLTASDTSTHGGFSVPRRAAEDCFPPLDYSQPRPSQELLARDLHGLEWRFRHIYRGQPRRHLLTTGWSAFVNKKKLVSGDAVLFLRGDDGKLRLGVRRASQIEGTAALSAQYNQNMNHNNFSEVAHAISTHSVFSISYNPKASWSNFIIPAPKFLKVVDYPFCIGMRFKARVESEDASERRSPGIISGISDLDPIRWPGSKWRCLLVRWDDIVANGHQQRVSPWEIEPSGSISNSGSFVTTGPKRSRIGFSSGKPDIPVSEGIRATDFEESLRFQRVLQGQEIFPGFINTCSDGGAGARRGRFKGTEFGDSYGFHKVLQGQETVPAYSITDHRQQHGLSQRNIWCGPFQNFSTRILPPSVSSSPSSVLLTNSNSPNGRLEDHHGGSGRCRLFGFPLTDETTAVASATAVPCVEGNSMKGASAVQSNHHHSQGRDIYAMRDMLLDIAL
# Sequence of UniProt Q38826 (whole entry, looked up): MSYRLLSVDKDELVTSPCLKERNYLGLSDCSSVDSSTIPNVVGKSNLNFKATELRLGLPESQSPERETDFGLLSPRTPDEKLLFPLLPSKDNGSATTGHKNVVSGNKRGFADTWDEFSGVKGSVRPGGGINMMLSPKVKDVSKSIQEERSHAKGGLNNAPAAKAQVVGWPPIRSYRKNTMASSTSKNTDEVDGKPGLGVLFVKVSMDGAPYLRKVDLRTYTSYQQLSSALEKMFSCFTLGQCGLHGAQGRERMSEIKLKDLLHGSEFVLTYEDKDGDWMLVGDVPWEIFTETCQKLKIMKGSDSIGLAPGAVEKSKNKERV
# Sequence of UniProt P93024 (whole entry, looked up): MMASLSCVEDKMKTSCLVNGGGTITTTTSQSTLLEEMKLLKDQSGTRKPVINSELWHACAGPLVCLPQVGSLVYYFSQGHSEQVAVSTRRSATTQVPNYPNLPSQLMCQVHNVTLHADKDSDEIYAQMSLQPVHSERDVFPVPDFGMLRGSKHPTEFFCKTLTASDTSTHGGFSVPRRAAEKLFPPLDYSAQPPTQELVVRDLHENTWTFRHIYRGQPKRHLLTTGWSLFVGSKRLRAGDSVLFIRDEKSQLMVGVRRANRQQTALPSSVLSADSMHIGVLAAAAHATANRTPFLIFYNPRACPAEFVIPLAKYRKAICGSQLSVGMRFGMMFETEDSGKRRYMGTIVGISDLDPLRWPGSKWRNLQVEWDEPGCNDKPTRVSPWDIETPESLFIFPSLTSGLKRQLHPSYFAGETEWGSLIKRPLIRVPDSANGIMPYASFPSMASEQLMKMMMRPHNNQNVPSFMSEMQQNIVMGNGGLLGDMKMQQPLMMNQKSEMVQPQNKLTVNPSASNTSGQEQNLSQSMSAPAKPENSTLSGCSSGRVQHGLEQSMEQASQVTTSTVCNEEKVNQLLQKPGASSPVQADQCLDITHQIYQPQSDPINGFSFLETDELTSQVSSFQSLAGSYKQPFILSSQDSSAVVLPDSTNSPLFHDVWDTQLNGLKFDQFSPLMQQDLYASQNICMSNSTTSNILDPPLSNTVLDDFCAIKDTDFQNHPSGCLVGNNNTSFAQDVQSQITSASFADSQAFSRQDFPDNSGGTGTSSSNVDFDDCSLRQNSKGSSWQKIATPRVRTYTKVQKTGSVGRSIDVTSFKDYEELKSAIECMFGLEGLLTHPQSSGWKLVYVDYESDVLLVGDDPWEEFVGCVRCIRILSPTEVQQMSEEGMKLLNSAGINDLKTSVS
# Sequence of UniProt Q9C966 (whole entry, looked up): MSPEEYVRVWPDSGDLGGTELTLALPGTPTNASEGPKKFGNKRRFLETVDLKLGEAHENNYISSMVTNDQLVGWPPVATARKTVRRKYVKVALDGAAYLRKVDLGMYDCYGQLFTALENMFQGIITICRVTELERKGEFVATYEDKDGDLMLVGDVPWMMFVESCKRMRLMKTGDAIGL
# Sequence of UniProt Q9C7I9 (whole entry, looked up): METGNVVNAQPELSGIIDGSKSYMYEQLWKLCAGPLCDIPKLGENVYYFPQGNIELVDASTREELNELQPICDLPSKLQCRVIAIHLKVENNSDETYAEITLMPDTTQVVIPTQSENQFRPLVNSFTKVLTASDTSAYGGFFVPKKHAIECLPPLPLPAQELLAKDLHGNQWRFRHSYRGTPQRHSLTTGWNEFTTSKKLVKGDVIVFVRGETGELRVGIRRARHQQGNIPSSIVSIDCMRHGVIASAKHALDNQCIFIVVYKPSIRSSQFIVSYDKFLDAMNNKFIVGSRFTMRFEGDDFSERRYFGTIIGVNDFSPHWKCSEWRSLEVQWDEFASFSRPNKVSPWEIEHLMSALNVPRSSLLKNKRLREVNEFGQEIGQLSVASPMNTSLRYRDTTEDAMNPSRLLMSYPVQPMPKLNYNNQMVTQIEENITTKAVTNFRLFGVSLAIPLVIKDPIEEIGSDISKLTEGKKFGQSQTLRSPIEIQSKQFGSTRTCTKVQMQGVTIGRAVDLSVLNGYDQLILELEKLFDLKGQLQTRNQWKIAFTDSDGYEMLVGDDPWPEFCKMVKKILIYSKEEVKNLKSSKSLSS

# Study 1 — method: protein-binding microarray; form: double-stranded DNA, one strand shown; matrix: in vitro; concentration: not given; direction: higher = stronger binding
# Target: Myc proto-oncogene protein, bHLH-zipper, MAX partner unstated (MYC, Homo sapiens, UniProt P01106, residues 368-449)
# Sequence of UniProt P01106 (368-449, looked up): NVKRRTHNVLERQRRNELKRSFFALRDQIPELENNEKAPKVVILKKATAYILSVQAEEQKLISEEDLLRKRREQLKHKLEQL
# Notes: k-mer, scored over probes, only values ≥0.25
Sequence,E-score
ACATGAGA,0.272
ACGCCCGC,0.256
CACGGGGA,0.281
AGGCGCGG,0.314
ACGTGAAC,0.27
GAGCATGA,0.3
CGTGTCGC,0.353
CATGGCCA,0.355

# Study 2 — method: two-hybrid; direction: higher = firmer interaction
# Substance: IAA7 (Arabidopsis thaliana, UniProt Q38825)
# Sequence of UniProt Q38825 (whole entry, looked up): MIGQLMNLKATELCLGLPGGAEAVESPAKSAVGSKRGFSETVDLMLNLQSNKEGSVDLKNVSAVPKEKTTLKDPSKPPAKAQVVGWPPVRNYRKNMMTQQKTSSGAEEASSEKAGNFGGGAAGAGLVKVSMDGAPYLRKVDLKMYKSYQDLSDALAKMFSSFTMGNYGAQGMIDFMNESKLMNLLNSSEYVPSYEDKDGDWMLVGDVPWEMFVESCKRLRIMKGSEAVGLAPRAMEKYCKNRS
partner,conditions,how to read,positive tests
"ARF20 484-590 (Arabidopsis thaliana, UniProt Q9C7I9)",,relative to: out of 4 tests,0
"IAA8 (Arabidopsis thaliana, UniProt Q38826)",,relative to: out of 4 tests,3
"ARF5 788-902 (Arabidopsis thaliana, UniProt P93024)",,relative to: out of 4 tests,4
"IAA31 (Arabidopsis thaliana, UniProt Q8H174)",,relative to: out of 2 tests,0
"IAA11 (Arabidopsis thaliana, UniProt Q38829)",weak activation fusion,relative to: out of 4 tests,0
"ARF18 482-602 (Arabidopsis thaliana, UniProt Q9C5W9)",,relative to: out of 2 tests,1
"IAA15 (Arabidopsis thaliana, UniProt Q9C966)",,relative to: out of 4 tests,2
"ETT (Arabidopsis thaliana, UniProt O23661)",,relative to: out of 4 tests,0

# Study 3 — method: protein binding microarray; form: double-stranded DNA, one strand shown; matrix: in vitro; concentration: not given; relative to: not given; direction: higher = stronger binding
# Target: Histone acetyltransferase KAT6A, winged helix 1, GST fusion (KAT6A, Homo sapiens, UniProt Q92794, residues 1-85)
# Notes: 8-mer, flanks averaged, mean of 2 arrays, mostly near background
# Residues (chain): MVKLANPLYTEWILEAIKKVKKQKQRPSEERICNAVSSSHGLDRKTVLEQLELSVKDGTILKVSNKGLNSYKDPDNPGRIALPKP
Sequence,E-score
CATCTCTA,-0.0802
AACATTCT,-0.226
GGTATTAA,0.117
ATGCAAAC,-0.0797
AATTAGTA,-0.0819
ATAGGAAT,-0.235
ATGCGTGC,0.14
AGACTCCG,0.0931

# Mixed results
Molecule,target,assay,system,conditions,quantity,result
ALYSYASAK,"HLA class I histocompatibility antigen, A alpha chain, allele A*26:03 (Homo sapiens, UniProt P04439)",peptide-MHC binding,peptide,concentration not given,binding,inactive

# For quick reference, copied from above (study 2):
partner,conditions,how to read,positive tests
"ARF5 788-902 (Arabidopsis thaliana, UniProt P93024)",,relative to: out of 4 tests,4
"IAA31 (Arabidopsis thaliana, UniProt Q8H174)",,relative to: out of 2 tests,0
"IAA11 (Arabidopsis thaliana, UniProt Q38829)",weak activation fusion,relative to: out of 4 tests,0
"ARF18 482-602 (Arabidopsis thaliana, UniProt Q9C5W9)",,relative to: out of 2 tests,1
